# Published values pooled from the literature.
# Lines come from different studies, so protocols differ. ± gives the spread as reported.
# DRD3: D(3) dopamine receptor (DRD3, Homo sapiens, UniProt P35462)
# UniProt P35462, sequence (whole entry, looked up): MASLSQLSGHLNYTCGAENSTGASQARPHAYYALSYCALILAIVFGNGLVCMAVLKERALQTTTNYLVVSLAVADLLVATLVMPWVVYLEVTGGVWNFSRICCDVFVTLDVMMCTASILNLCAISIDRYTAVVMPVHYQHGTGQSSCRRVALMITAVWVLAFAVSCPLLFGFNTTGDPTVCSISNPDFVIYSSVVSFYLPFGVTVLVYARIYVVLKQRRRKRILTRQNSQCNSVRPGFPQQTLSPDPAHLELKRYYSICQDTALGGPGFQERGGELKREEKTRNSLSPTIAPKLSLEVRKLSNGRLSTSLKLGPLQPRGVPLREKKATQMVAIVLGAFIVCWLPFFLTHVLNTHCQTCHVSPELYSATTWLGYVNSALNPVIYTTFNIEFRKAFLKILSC
# ESR1: Estrogen receptor (ESR1, Homo sapiens, UniProt P03372)
# UniProt P03372, sequence (whole entry, looked up): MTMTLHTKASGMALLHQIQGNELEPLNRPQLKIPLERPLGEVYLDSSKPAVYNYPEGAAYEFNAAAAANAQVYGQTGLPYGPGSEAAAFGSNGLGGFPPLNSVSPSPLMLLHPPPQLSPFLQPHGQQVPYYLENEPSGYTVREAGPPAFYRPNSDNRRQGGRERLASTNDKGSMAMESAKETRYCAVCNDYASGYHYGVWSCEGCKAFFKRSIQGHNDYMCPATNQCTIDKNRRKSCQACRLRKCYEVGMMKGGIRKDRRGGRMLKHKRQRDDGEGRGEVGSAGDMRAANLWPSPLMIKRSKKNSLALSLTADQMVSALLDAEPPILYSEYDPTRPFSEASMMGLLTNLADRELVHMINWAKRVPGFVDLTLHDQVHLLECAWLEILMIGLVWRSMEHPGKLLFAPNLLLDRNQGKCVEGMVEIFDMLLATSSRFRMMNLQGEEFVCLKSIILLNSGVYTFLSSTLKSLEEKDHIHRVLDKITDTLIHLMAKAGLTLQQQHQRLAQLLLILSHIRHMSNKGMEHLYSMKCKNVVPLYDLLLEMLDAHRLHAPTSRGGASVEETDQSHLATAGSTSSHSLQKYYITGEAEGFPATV
# SLC10A1: Hepatic sodium/bile acid cotransporter (SLC10A1, Homo sapiens, UniProt Q14973)
# UniProt Q14973, sequence (whole entry, looked up): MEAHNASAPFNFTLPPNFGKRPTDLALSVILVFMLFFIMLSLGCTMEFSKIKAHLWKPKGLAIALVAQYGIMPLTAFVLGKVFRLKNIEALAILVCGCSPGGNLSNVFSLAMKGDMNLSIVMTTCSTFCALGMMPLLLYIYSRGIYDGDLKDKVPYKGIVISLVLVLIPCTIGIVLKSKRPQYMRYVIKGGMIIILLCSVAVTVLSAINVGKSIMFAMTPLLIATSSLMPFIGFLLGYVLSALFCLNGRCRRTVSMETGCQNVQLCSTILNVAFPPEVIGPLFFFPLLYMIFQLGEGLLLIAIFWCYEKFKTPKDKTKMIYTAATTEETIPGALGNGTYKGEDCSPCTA
# CDK2 with cyclin A: Cyclin-dependent kinase 2, with cyclin A (CDK2, Homo sapiens, UniProt P24941)
# CDK2: Cyclin-dependent kinase 2 (CDK2, Homo sapiens, UniProt P24941)
# UniProt P45985, sequence (whole entry, looked up): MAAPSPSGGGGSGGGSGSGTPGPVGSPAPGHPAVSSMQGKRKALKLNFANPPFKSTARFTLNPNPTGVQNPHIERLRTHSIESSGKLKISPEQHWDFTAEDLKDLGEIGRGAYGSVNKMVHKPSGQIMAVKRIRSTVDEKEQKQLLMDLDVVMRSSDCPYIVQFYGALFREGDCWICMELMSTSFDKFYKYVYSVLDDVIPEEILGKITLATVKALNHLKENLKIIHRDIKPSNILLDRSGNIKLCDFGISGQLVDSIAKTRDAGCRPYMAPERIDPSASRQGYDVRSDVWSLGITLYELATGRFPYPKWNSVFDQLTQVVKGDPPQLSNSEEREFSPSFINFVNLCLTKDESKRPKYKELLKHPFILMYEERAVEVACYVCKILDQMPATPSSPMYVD
Structure (SMILES),target,assay,test system,setting,quantity,result
Cc1[nH]c(C)c(S(=O)(=O)Nc2ccc(B3OC(C)(C)C(C)(C)O3)cc2)c1C(=O)N1CCC(F)(F)C1,DRD3,"β-arrestin recruitment, antagonist, PathHunter",,together with: dopamine EC80,IC50,> 100 µM
O=C(/C=C/c1ccc(O)cc1)c1ccccc1,ESR1,"array formation, agonist",ERα-GFP PRL-HeLa,1 h,EC50,6.33 µM
Nc1nc(N)c2nc(-c3ccccc3)c(N)nc2n1,SLC10A1,"taurocholate uptake, inhibitor",NTCP-expressing HEK293,together with: 10 µM taurocholate,Ki,411 ± 139 µM
O=S(=O)(NCc1ccccn1)c1cc(Cl)c(Cl)cc1Cl,CDK2 with cyclin A,,,,Kd,> 100 µM
COc1c(O[C@@H]2O[C@H](CO)[C@@H](O)[C@H](O)[C@H]2O)cc2occ(-c3ccc(O)cc3)c(=O)c2c1O,ESR1,"array formation, agonist",ERα-GFP PRL-HeLa,1 h,EC50,3.37 µM
COc1ccc2[nH]cc(CCNC(=O)Nc3ccc(Cl)c(Cl)c3)c2c1,CDK2,binding,,,Kd,> 100 µM
CCN(CC)S(=O)(=O)c1c(C)[nH]c(C)c1C(=O)Nc1ccc(C(F)(F)F)c(Cl)c1,DRD3,"β-arrestin recruitment, antagonist, PathHunter",,together with: dopamine EC80,IC50,> 100 µM
COc1ccc(-c2coc3cc(O)ccc3c2=O)cc1,ESR1,"array formation, agonist",ERα-GFP PRL-HeLa,1 h,EC50,1.17 µM
O=C(O)c1cccc(CSc2nnc(-c3ccncc3)o2)c1,CDK2 with cyclin A,,,,Kd,> 100 µM
Cc1[nH]c(C)c(S(=O)(=O)Nc2ccc(N(C)C)c(Cl)c2)c1C(=O)N1CCC(F)(F)C1,DRD3,"β-arrestin recruitment, antagonist, PathHunter",,together with: dopamine EC80,IC50,> 100 µM
CCc1nn(CCCN2CCN(c3cccc(Cl)c3)CC2)c(=O)n1CCOc1ccccc1,SLC10A1,"taurocholate uptake, inhibitor",NTCP-expressing HEK293,together with: 10 µM taurocholate,Ki,100 ± 8 µM
CN(C)C(=O)c1c[nH]cc1S(=O)(=O)Nc1ccc(C(F)(F)F)c(Cl)c1,DRD3,"Go activation, antagonist, BRET",,together with: dopamine,IC50,> 100 µM
COc1cc2ncnc(Nc3ccc(F)c(Cl)c3)c2cc1OCCCN1CCOCC1,SLC10A1,"taurocholate uptake, inhibitor",NTCP-expressing HEK293,together with: 10 µM taurocholate,Ki,250 ± 41 µM
CCCN(CCC)C(=O)c1c(C)[nH]c(C)c1S(=O)(=O)Nc1ccc(C(F)(F)F)c(Cl)c1,DRD3,"Go activation, antagonist, BRET",,together with: dopamine,IC50,> 100 µM
CCC1(C)CC(=O)NC1=O (stereo not drawn),SLC10A1,"taurocholate uptake, inhibitor",NTCP-expressing HEK293,together with: 10 µM taurocholate,Ki,513 ± 169 µM
COc1ccc([N+](=O)[O-])cc1NC(=O)C(C)Oc1ccccc1C (stereo not drawn),CDK2 with cyclin A,,,,Kd,> 100 µM
CC(C)=CCc1cc2c(cc1O)O[C@H](c1ccc(O)cc1)CC2=O,ESR1,"array formation, agonist",ERα-GFP PRL-HeLa,1 h,EC50,8.75 µM
CCOc1ccc2ccccc2c1C(=O)N[C@@H]1C(=O)N2[C@@H]1SC(C)(C)[C@@H]2C(=O)O,SLC10A1,"taurocholate uptake, inhibitor",NTCP-expressing HEK293,together with: 10 µM taurocholate,Ki,2010 ± 5840 µM
COc1ccc(-c2oc3c(CC=C(C)C)c(O[C@@H]4O[C@H](CO)[C@@H](O)[C@H](O)[C@H]4O)cc(O)c3c(=O)c2O[C@@H]2O[C@@H](C)[C@H](O)[C@@H](O)[C@H]2O)cc1,ESR1,"array formation, agonist",ERα-GFP PRL-HeLa,1 h,EC50,3.28 µM
CC[C@@H]1[C@H](F)C(=O)N[C@@H]1COc1nccc2cc(C(N)=O)c(OC)cc12,"MAP2K4 (Homo sapiens, UniProt P45985)","ATP probe binding, KiNativ profiling, measured: Lys1 probe site",THP-1 cell lysate,,IC50,3.9 µM
CC1(C)C=Cc2c(ccc3c2OC[C@@H](c2ccc(O)cc2O)C3)O1,ESR1,"array formation, agonist",ERα-GFP PRL-HeLa,1 h,EC50,0.187 µM
O=C(Nc1cc(C2CCCCC2)[nH]n1)c1ccc(Br)cc1,CDK2 with cyclin A,bio-layer interferometry,,together with: cyclin A,Kd,> 100 µM
Cc1[nH]c(C)c(S(=O)(=O)Nc2ccc(C(F)(F)F)c(Cl)c2)c1C(=O)N1CCN(C(=O)OC(C)(C)C)CC1,DRD3,"β-arrestin recruitment, antagonist, PathHunter",,together with: dopamine EC80,IC50,> 100 µM
COc1ccc(-c2cc(=O)c3c(O)cc(OC)cc3o2)cc1,ESR1,"array formation, agonist",ERα-GFP PRL-HeLa,1 h,EC50,0.987 µM
COc1cc(OC)c(NC(=O)CSc2nnc(-c3ccncc3)n2-c2ccccc2)cc1Cl,CDK2 with cyclin A,,,,Kd,> 100 µM
Cc1[nH]c(C)c(S(=O)(=O)Nc2cc(Cl)ccc2C(F)(F)F)c1C(=O)N1CCC(F)(F)C1,DRD3,"Go activation, antagonist, BRET",,together with: dopamine,IC50,> 100 µM
CCCNCC(O)COc1ccccc1C(=O)CCc1ccccc1 (stereo not drawn),SLC10A1,"taurocholate uptake, inhibitor",NTCP-expressing HEK293,together with: 10 µM taurocholate,Ki,402 ± 116 µM
O=c1c(O[C@@H]2O[C@H](CO)[C@@H](O)[C@H](O)[C@H]2O)c(-c2ccc(O)c(O)c2)oc2cc(O)cc(O)c12,ESR1,"array formation, agonist",ERα-GFP PRL-HeLa,1 h,EC50,1.15 µM
COc1cccc(OC)c1CNC(=O)c1ccc2c(c1)C(=NNc1ccc(S(N)(=O)=O)cc1)C(=O)N2,CDK2,"average of ITC, Octet and Thermofluor",,untagged protein,Kd,0.288 µM
C[C@]12C=CC(=O)C=C1CC[C@@H]1[C@@H]2[C@@H](O)C[C@@]2(C)[C@H]1CC[C@]2(O)C(=O)CO,SLC10A1,"taurocholate uptake, inhibitor",NTCP-expressing HEK293,together with: 10 µM taurocholate,Ki,335 ± 177 µM
COc1cc(NC(=O)CSc2nncn2C)cc(OC)c1OC,CDK2 with cyclin A,,,,Kd,> 100 µM
Cc1[nH]c(C)c(S(=O)(=O)N2CCC(F)(F)C2)c1S(=O)(=O)Nc1ccc(C(F)(F)F)c(Cl)c1,DRD3,"Go activation, antagonist, BRET",,together with: dopamine,IC50,> 100 µM
COCCc1ccc(OCC(O)CNC(C)C)cc1 (stereo not drawn),SLC10A1,"taurocholate uptake, inhibitor",NTCP-expressing HEK293,together with: 10 µM taurocholate,Ki,340 ± 52 µM
